Assay results gathered from unrelated publications.
Each numbered part is a random draw from the data of one study; scales do not carry over between parts.
Sequence of UniProt P07948 (whole entry, looked up): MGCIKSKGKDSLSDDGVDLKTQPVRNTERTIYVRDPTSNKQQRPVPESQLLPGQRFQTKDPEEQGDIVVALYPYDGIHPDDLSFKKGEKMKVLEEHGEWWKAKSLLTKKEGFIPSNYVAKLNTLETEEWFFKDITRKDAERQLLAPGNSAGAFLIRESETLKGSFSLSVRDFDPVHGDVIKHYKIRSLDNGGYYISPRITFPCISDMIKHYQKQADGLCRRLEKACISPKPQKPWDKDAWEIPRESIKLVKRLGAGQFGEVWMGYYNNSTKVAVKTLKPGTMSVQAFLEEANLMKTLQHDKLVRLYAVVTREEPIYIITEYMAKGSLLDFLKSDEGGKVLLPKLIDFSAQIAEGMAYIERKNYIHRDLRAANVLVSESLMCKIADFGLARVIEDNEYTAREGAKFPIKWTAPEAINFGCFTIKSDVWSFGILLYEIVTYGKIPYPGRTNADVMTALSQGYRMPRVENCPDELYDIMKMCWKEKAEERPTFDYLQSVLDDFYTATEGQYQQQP
Sequence of UniProt Q96RR4 (whole entry, looked up): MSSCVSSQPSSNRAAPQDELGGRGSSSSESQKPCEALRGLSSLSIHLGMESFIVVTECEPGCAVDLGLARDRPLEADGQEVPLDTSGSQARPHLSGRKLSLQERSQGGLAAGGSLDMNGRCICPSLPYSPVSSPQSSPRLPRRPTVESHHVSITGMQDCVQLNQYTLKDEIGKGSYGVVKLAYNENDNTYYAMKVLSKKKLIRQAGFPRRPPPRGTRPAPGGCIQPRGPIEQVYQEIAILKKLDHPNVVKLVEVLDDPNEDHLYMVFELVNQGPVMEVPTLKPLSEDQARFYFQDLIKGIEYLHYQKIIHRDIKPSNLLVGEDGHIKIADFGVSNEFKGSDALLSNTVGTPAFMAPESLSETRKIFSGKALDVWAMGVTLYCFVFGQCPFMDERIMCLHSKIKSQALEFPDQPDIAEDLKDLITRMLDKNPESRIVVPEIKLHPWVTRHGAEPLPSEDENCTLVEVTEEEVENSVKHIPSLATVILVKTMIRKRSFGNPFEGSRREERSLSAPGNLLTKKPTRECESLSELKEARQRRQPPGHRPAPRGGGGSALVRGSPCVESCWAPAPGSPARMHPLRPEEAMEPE
Sequence of UniProt P51812 (whole entry, looked up): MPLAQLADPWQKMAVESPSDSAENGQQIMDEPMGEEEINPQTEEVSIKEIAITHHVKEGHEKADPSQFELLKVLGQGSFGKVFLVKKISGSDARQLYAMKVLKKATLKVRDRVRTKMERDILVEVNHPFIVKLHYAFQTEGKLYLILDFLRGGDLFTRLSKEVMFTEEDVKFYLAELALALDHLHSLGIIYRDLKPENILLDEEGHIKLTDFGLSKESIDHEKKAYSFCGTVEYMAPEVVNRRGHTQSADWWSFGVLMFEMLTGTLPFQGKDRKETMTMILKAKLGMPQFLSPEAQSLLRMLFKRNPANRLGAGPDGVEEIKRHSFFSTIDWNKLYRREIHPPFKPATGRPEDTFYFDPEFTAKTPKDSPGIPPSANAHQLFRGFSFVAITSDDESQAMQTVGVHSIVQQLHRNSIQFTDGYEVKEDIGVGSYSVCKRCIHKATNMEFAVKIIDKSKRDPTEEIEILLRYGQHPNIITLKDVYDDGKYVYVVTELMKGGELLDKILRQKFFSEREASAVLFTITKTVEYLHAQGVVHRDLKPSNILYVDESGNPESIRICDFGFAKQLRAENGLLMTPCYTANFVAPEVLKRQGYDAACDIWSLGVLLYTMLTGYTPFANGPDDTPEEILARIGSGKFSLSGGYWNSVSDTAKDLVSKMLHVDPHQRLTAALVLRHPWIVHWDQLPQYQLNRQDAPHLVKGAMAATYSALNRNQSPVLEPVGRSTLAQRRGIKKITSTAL
Sequence of UniProt P10721 (whole entry, unmodified, looked up): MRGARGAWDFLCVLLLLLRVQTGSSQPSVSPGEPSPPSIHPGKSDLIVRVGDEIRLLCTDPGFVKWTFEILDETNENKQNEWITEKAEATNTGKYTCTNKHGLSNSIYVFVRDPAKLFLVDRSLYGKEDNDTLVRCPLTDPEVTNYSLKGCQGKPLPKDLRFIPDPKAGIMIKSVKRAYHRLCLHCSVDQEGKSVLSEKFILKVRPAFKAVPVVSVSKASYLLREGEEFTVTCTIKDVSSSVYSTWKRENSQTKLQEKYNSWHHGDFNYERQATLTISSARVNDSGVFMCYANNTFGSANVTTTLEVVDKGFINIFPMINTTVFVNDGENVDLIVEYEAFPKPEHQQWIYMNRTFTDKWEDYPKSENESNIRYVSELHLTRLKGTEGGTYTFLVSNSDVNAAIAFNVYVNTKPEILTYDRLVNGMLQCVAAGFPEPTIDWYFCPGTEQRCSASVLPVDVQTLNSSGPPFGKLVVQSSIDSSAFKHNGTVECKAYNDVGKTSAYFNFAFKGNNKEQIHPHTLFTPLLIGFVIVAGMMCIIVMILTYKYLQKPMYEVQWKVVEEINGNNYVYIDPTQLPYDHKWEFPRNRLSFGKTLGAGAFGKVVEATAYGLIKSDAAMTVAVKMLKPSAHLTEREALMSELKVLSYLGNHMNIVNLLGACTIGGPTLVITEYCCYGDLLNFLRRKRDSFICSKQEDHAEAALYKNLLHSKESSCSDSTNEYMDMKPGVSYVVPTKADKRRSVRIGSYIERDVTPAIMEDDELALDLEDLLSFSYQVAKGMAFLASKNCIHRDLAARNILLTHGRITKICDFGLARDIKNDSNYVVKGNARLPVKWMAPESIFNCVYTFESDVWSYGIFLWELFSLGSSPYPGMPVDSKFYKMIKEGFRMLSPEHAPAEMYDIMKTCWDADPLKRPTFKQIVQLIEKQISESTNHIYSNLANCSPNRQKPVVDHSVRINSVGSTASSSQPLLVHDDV
Sequence of UniProt O43293 (whole entry, looked up): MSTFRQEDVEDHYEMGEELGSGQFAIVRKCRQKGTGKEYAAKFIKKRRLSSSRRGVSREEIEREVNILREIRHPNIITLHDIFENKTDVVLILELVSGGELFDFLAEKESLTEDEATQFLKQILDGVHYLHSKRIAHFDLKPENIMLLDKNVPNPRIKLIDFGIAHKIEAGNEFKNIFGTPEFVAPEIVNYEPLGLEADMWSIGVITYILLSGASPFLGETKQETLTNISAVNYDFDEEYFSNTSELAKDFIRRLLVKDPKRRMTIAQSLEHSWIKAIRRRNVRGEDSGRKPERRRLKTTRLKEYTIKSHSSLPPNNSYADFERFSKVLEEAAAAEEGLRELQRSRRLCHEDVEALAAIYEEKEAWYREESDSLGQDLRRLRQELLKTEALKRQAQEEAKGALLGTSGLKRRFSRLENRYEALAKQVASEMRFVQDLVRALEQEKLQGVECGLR

Set 1
SMILES: O=C1CCc2cc(Nc3cc(OC4CCOCC4)c([N+](=O)[O-])cc3Cl)ccc2N1
Read-out: cell-free assay
Method: competition with immobilised ligand
Concentration: 1 µM
Quantity: remaining binding
KDR (Homo sapiens, UniProt P35968): 100%
Tyrosine-protein kinase ABL1, phosphorylated (ABL1, Homo sapiens, UniProt P00519, Y253F): 79%
KIT (Homo sapiens, UniProt P10721, D816H): 100%
CAMKK2 (Homo sapiens, UniProt Q96RR4): 100%
MAP2K6 (Homo sapiens, UniProt P52564): 69%
ROCK2 (Homo sapiens, UniProt O75116): 100%
LYN (Homo sapiens, UniProt P07948): 93%
EPHB2 (Homo sapiens, UniProt P29323): 96%
ALK (Homo sapiens, UniProt Q9UM73, C1156Y): 91%
DAPK3 (Homo sapiens, UniProt O43293): 91%
FLT3 (Homo sapiens, UniProt P36888, D835V): 70%
CAMK1 (Homo sapiens, UniProt Q14012): 93%
FLT3 (Homo sapiens, UniProt P36888): 90%
NEK7 (Homo sapiens, UniProt Q8TDX7): 87%
Ribosomal protein S6 kinase alpha-3, C-terminal kinase domain (RPS6KA3, Homo sapiens, UniProt P51812): 100%
RIPK4 (Homo sapiens, UniProt P57078): 100%
Tyrosine-protein kinase ABL1, phosphorylated (ABL1, Homo sapiens, UniProt P00519): 100%
PDGFRB (Homo sapiens, UniProt P09619): 97%

Set 2
Species: mouse
Sample: microsomes or S9
Concentration: 2 µM
Time: 0.5 h
Quantity: remaining compound
Cc1ccc(S(=O)(=O)NNc2ccc(S(=O)(=O)N(C(C)C)C(C)C)cn2)c(Cl)c1: 0%
O=C1Nc2ccccc2C1(c1c[nH]c2ccccc12)c1c[nH]c2ccccc12: 89.1%
Nc1ncc(Br)cc1S(=O)(=O)N1CCC(Oc2ccncc2)C1 (stereo not drawn): 19.4%
CCN(CC)S(=O)(=O)c1ccc(C(=O)Nc2sc3c(c2C(N)=O)CC(C)(C)NC3(C)C)cc1: 23.7%
Cc1ccc(CO)c(-c2ccc3c(c2)CNCC2(CCC2)O3)c1: 0.213%
CS(=O)(=O)N1N=C(c2cccs2)CC1c1ccccc1F (stereo not drawn): 25.7%
Cc1cc(Br)ccc1OCCOCCN1CC(C)OC(C)C1 (stereo not drawn): 0.159%
Cc1ccc(NC(=O)N2Cc3c(sc4c3CCCC4)-n3cccc3C2c2ccc(N(C)C)cc2)c(C)c1 (stereo not drawn): 19.7%
COC(=O)c1c(CCc2ccc(OC)cc2)nc(CCc2ccccc2)c(O)c1C(=O)OC: 6.52%
CCC(C)NC(=O)Cn1nc2n(CCC(=O)NCC(C)C)c(=O)c3ccccc3n2c1=O (stereo not drawn): 40.9%

Set 3
Target: Tyrosine-protein kinase Fes/Fps (FES, Homo sapiens, UniProt P07332)
Sequence of UniProt P07332 (whole entry, looked up): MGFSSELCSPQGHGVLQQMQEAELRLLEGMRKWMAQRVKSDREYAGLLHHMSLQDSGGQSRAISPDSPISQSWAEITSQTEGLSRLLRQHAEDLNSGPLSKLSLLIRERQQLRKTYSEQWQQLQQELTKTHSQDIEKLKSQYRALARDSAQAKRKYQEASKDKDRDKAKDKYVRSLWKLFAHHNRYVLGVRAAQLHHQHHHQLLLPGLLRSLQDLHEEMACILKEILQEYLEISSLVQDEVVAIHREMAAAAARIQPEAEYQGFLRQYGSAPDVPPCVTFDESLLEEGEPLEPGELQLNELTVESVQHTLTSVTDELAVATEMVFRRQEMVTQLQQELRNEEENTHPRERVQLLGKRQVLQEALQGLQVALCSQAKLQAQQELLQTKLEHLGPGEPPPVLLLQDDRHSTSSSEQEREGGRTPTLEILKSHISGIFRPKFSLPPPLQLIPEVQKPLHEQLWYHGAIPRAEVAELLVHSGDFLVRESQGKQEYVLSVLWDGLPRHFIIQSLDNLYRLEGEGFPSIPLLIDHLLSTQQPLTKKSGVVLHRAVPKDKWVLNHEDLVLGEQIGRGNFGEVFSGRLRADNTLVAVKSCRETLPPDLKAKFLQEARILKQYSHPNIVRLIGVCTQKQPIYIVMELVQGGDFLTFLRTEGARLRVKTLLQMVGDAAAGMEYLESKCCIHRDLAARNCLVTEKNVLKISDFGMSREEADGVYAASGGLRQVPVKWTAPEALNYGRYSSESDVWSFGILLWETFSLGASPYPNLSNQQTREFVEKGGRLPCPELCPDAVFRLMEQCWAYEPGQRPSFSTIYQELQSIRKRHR
Read-out: enzyme activity
Mode: inhibitor
Concentration: 0.5 µM
Relative to: control
Quantity: remaining activity
Oc1ccc(Nc2nc(-c3ccc(Cl)cc3)cs2)cc1: 103%
CC(C)(C)n1nc(Cc2cccc3ccccc23)c2c(N)ncnc21: 96.8%
CC#CC(=O)Nc1cc2c(Nc3ccc(F)c(Cl)c3)ncnc2cn1: 99.4%
Cc1ccc(NC2=CC(=O)c3sc(C)nc3C2=O)cc1: 101%
O=C1Cc2c([nH]c3ccc([N+](=O)[O-])cc23)-c2ccccc2N1: 46.3%
Nc1nccc(-c2c(-c3ccc(F)cc3)ncn2C2CCNCC2)n1: 103%
CC(=O)c1ccc(N2CCOCC2)cc1O: 100%
Fc1ccc(-c2nc3n(c2-c2ccncc2)CCS3)cc1: 104%

Set 4
Structure (SMILES): C=CCc1ccc(O)c(-c2cc(CC=C)ccc2O)c1
Read-out: chloride current
Method: whole-cell voltage clamp
Quantity: IC50
ANO1 del476-501/E649I: Anoctamin-1 (ANO1, Homo sapiens, UniProt Q5XXA6, del476-501/E649I)
Sequence of UniProt Q5XXA6 (whole entry, unmodified, looked up): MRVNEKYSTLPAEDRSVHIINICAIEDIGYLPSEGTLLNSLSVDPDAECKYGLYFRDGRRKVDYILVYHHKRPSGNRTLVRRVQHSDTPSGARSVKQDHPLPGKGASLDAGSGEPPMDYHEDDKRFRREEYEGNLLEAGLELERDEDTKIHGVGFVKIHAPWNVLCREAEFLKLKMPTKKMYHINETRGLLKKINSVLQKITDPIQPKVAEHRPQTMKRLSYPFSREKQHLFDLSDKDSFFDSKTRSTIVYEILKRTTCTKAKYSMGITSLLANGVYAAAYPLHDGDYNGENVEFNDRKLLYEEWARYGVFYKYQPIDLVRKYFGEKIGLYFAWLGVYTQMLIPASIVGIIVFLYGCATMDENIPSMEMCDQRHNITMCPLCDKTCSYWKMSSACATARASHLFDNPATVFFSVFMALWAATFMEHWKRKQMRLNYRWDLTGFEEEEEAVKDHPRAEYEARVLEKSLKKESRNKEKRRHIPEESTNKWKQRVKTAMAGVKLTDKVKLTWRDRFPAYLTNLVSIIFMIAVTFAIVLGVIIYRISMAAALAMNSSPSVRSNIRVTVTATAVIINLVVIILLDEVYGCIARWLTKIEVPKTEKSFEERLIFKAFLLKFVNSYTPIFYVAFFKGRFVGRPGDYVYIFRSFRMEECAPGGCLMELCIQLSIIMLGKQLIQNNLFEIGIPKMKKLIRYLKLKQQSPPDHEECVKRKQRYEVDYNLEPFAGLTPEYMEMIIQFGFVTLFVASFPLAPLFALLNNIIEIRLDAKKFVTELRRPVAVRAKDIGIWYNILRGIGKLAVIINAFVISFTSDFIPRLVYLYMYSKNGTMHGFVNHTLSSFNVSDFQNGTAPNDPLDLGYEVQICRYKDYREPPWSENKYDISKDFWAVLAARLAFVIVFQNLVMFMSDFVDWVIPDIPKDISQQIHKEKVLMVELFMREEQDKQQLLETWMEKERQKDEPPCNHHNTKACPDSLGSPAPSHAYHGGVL
ANO1 del476-501/E650A: Anoctamin-1 (ANO1, Homo sapiens, UniProt Q5XXA6, del476-501/E650A)
ANO1 del476-501/R541D: Anoctamin-1 (ANO1, Homo sapiens, UniProt Q5XXA6, del476-501/R541D)
ANO1 del476-501/E649I; inhibitor; E623I mutant at 40 mV: 120 µM
ANO1 del476-501/E650A; membrane voltage -60 mV: 25.3 µM
Anoctamin-1 (ANO1, Homo sapiens, UniProt Q5XXA6, del476-501/F803A); inhibitor; mutant F777A at 100 mV, added: 300 nM Ca2+: 20.7 µM
ANO1 del476-501/E650A; membrane voltage -100 mV: 37.7 µM
Anoctamin-1 (ANO1, Homo sapiens, UniProt Q5XXA6, del476-501/L548A); membrane voltage -100 mV: 54.7 µM
Anoctamin-1 (ANO1, Homo sapiens, UniProt Q5XXA6, del476-501/R561A); membrane voltage 100 mV: 29.5 µM
ANO1 del476-501/E649I; inhibitor; E623I mutant at 20 mV: 132 µM
Anoctamin-1 (ANO1, Homo sapiens, UniProt Q5XXA6, del476-501/F627A); membrane voltage 100 mV: 27.7 µM
ANO1 del476-501/E649I; inhibitor; E623I mutant at -80 mV: 148 µM
ANO1 del476-501/R541D; inhibitor; R515D mutant at 20 mV: 114 µM
ANO1 del476-501/R541D; inhibitor; R515D mutant at 80 mV: 200 µM
Anoctamin-1 (ANO1, Homo sapiens, UniProt Q5XXA6, del476-501/F646A); membrane voltage -40 mV: 19.7 µM

For quick reference, copied from above (set 4):
Anoctamin-1 (ANO1, Homo sapiens, UniProt Q5XXA6, del476-501/L548A); membrane voltage -100 mV: 54.7 µM
ANO1 del476-501/R541D; inhibitor; R515D mutant at 20 mV: 114 µM
Anoctamin-1 (ANO1, Homo sapiens, UniProt Q5XXA6, del476-501/F646A); membrane voltage -40 mV: 19.7 µM
ANO1 del476-501/E649I; inhibitor; E623I mutant at 40 mV: 120 µM
ANO1 del476-501/E650A; membrane voltage -60 mV: 25.3 µM
Anoctamin-1 (ANO1, Homo sapiens, UniProt Q5XXA6, del476-501/F627A); membrane voltage 100 mV: 27.7 µM
Anoctamin-1 (ANO1, Homo sapiens, UniProt Q5XXA6, del476-501/F803A); inhibitor; mutant F777A at 100 mV, added: 300 nM Ca2+: 20.7 µM
